Results gathered from unrelated publications.
Each numbered part is a random draw from the data of one study; scales do not carry over between parts.

Block 1
Target: Phosphate system positive regulatory protein PHO4, full length, GST-tagged (PHO4, Saccharomyces cerevisiae, UniProt P07270, residues 1-312)
Method: competition protein-binding microarray
Molecule type: double-stranded DNA, one strand shown
Matrix: in vitro
Concentration: 2 µM
Notes: whole 60-bp probe, lowest competitor level
Added: Cbf1 competitor, 0.05 µM
Direction: higher = stronger binding
Endpoint: fluorescence intensity
Target sequence (chain): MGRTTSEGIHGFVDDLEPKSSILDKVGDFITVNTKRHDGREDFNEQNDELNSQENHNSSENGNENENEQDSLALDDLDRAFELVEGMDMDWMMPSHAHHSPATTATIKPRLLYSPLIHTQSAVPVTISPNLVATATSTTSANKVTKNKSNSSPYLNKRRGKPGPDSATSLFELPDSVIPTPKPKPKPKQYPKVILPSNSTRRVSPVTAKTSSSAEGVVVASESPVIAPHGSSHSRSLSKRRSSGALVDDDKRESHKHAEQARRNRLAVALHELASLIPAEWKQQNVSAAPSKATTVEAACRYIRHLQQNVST
Sequence = CACAGTGGTAACGGCACCGTGGCCGGGAAACGGTTCGTCTTGATTCGCTTGACGCTGCTG; result = 7110 a.u.
Sequence = AAAGCGGTAATTTGGTCTGTGGGTGCAGATATCTATGTCTTGATTCGCTTGACGCTGCTG; result = 4480 a.u.
Sequence = GTCTTGTCTCATTGATAGGTGGGTGTCCCCACTTCAGTCTTGATTCGCTTGACGCTGCTG; result = 5140 a.u.
Sequence = AGTAATGTCTTTCAACACGTCAACAACTCCTCGGGAGTCTTGATTCGCTTGACGCTGCTG; result = 4800 a.u.

Block 2
Target: Interferon regulatory factor 3, full length, phosphomimetic (IRF3, Homo sapiens, UniProt Q14653, residues 1-427, S386D/S396D/S398D/S402D/T404D/S405D)
Method: protein-binding microarray
Molecule type: double-stranded DNA, one strand shown
Matrix: in vitro
Concentration: 2540 nM top
Notes: 60-bp whole probe
Added: salmon DNA 0.4 mg/ml
Reference: random background probes
Direction: higher = stronger binding
Endpoint: fitted relative affinity
All sequences stand within: GCCTAGCAC … GTCTTGATTCGCTTGACGCTGCTG
Residues (chain): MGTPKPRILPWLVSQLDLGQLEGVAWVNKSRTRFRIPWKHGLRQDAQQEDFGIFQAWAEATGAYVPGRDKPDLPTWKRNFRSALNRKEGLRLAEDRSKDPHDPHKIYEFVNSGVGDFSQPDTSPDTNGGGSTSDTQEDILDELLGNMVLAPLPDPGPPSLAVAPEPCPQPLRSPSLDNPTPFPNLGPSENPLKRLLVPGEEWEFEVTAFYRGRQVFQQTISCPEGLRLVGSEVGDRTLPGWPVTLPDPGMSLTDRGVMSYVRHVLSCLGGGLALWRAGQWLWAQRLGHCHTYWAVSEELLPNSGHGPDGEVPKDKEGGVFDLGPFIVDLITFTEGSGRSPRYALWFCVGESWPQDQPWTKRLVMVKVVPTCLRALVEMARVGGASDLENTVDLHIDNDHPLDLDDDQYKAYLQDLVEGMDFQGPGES
Sequence = TCAAGCCTAAGGTTTAGGACTGTGCTA; result = -0.821 z-score
Sequence = GACGGTCTCGGTCTCGGGTCGTGCTAG; result = 1.47 z-score
Sequence = GTAGGTATCGACTTTCGGTTAGTGCTA; result = 2.03 z-score
Sequence = TTAGAACTTGGGTTTCGATTAGTGCTA; result = 1.55 z-score
Sequence = GACGGTATCGACTTTCGTGACGTGCTA; result = 1.01 z-score

Block 3
Target: Prothrombin, mature alpha-thrombin (F2, Homo sapiens, UniProt P00734)
Method: aptamer microarray, sandwich
Molecule type: DNA with 2'F-ANA
Matrix: in vitro
Concentration: 200 nM
Notes: whole 15-mer aptamer, many near background
Added: Cy3 exosite-II aptamer, 400 nM
Direction: higher = stronger binding
Endpoint: mean fluorescence intensity
Sequence = GGTTGGTGTGGTTGG (2'F-ANA at 2 4 6 9 10 13); result = 67.7 a.u.
Sequence = GGTTGGTGTGGTTGG (2'F-ANA at 2 3 4 6 7 8 9 10 11 15); result = 190 a.u.
Sequence = GGTTGGTGTGGTTGG (2'F-ANA at 2 4 5 6 7 8 9 10 13 15); result = 47.3 a.u.
Sequence = GGTTGGTGTGGTTGG (2'F-ANA at 3 6 7 9 10 11 12 13); result = 474 a.u.

Other studies, line by line
Substance = PhoQ, residues 284 288 289 292 302 303 GASLAW; target = PhoP, residues 12 14 15 18 19 LYHSL (Escherichia coli, UniProt P23836); test = Sort-seq, refers to: YFP reporter; system = E. coli; conditions = PhoQ-PhoP variant library, added: 10 µM Mg2+; how to read = reference: high Mg2+ state, higher = stronger signaling; endpoint = fold induction; result = 3.32

Excerpt of the above (block 2):
Sequence = TCAAGCCTAAGGTTTAGGACTGTGCTA; result = -0.821 z-score
Sequence = GACGGTATCGACTTTCGTGACGTGCTA; result = 1.01 z-score
